# Published values from different studies.
# A part holds a random share of what one study measured.

# Sample 1 — method: RNA Bind-n-Seq; molecule type: RNA; medium: in vitro; tested at: 365 nM; relative to: no-protein control; direction: higher = stronger binding
# Target: RNA binding protein fox-1 homolog 2, RRM domain, GST-SBP tag (RBFOX2, Homo sapiens, UniProt O43251-10, residues 100-194)
# Notes: natural RNA segment, single round, ends assumed
# Shared flanks, not repeated: GGGAGUUCUACAGUCCGACGAUC … UGGAAUUCUCGGGUGCCAA
# Construct (chain): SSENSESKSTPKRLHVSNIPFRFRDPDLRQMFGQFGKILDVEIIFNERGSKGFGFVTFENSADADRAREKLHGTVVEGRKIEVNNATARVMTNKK
Strand,RBNS enrichment (R)
AAGUUGAGACUAUAAGAGUCAUAAAUAAGUCCUUGUGUUUCCUUAAUUUAUUUUGUUAACACCCCUAAUUACAACCAAAGUGAUGAUGUGGAGUCUUCUGUCUUCAUUUU,0.625
CAUCAGAUCUUGUGAAACUUAUUCACUAUCACAAGAAUAGCAUGGGAAAGACUGGCCCCCAUGAUUCAAUUACCUCCCCUUGGGUCUCUCCCACAACACGUGGGAAUUCU,0.499
CAAAUCUGAGAUCACAUGAUCUUUACACUGCUAAUUCAUAAAGAUGCAUAAUACAGAAAGCCUGUGAACACAUGGAAGAUGAUCCUCAUGGUAUGUAUGGUCUGUGUCUU,0.531
GCCUUGCUGGGUGGAGCCUCUGUGUGACUCCAUACUCCUCCCACCACAACACUCAUCUGUCAAACACCAAGCACUCUCAGCCUCCCCGCCUUCAGCUGUCAGCUUUCUGG,0.6
CAUAAGGUUAAACAAACUAGGUGCUUGUAAAUAAUUUAUUACAGUUUACUCUAUCGCAUUUCUGUAACAUGAAAUGCAUGCCCUUCUUCAGGGGAAGACUGUGGUCAAGU,0.456
AAUAAUUGUUUUUGACUUUCAUAUGUAAAUUUUUUCUACUGAAAGUGUUUUGCUUUUUAAGAAAAUGAAAUUAUAUAGCAGGAAAGGACUAUCUUUGAACAUAAGUUAAU,0.488
GGAGGGAAGGGUUUCUCUAUUAAAAUGCAUUCGUUGUGUUUUUUAAGAUAGUGUAACUUGCUUAAAUUUCUUAUGUGACAUUAACAAAUAAAAAAGCUCUUUUAAUAUUG,1.15
UCAAAGGGCAGACAUUGCAGCCUUUUUAUAUUGCCUGCCAAAAUUUGAAGUAUUAGAACAAAGUGUGCCAUGAGAGAAAAACUUAACAAGGAGUUUUGAAAAGAAAUGCA,11.1
UGGCCCCGAGGUCCAGGUUGUAGUCAUGGAAAGAGCCCUGCUGUCUCCCUUCUCAGGGGGCCCAUUUUAGACACACAAAGCCCAAAGAAAGGUGGUUUGCAACAGUGCUU,0.388
CAGACUCAAAGUUACUCUCCUUCCCCCUACCUGGGCCAGUGAAAUAGAAAGCCUUUCUAUUUUUUGGUGCGGGAGGGAAGACCUCUCACUUAGGGCAAGAGCCAGGUAUA,0.245
UGGCAUAUCUUUGUUUGAAGUUUGUUGGUGAUUCCACCAAACUGGUGUAAAAAACAAAAACAAAAAAACCCACAAACCACCCAAAACUCACAAAAAAAAUCCUGCUUGUA,1.14
UACAGGGCCCAUGCAAGUCCGAAAUCCAGCAGGGCUGUCAAAUUUUAAAGUUCCAGAAUAAUCUCCUUUGACUCCAGGUCUCACAUCCAGGUCAUACUGAUGCAAGAAGU,0.255

# Sample 2 — method: universal PBM; molecule type: double-stranded DNA, one strand shown; medium: in vitro; tested at: not given; direction: higher = stronger binding
# Target: Sal-like protein 4, full length isoform B (SALL4, Homo sapiens, UniProt Q9UJQ4-2, residues 1-616)
# Notes: 8-mer, flanks averaged, mean of replicates
# Residues (chain): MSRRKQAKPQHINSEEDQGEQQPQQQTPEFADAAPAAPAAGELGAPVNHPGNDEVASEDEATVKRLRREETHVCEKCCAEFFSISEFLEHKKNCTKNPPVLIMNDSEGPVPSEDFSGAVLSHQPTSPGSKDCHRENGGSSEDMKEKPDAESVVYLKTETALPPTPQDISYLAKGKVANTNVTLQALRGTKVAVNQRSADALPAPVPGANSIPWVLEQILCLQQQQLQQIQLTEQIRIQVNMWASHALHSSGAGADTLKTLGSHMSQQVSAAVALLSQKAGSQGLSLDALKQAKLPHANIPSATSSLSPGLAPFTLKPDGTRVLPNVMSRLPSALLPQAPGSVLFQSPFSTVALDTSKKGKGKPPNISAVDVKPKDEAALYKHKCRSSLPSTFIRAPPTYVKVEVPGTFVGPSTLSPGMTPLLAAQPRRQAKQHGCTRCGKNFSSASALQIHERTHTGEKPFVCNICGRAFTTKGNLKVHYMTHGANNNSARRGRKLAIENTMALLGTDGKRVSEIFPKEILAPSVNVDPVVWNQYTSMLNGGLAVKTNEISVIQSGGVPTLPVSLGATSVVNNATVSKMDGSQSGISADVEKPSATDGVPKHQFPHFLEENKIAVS
Strand,E-score
ACTAGCTA,-0.0584
GCTACCAA,0.0258
CTCTGCCC,-0.158
AAAACCTC,0.0629
AAGCCTAA,0.035
CACCTAAG,-0.0832
GATTGTCC,-0.167
ATGTTTAA,0.283
GTGGGCGA,-0.0567
TCCGTGAA,0.00469
CAAGTCGG,-0.124
CCAGGCTC,-0.214
ACGATTGG,0.087
CTCACGAA,0.0044
ACCCAACT,-0.00117
TCAGCCCA,-0.202
AGAGCCTA,-0.0574
TCCAACAA,0.129

# Sample 3 — method: RNA Bind-n-Seq; molecule type: RNA; medium: in vitro; tested at: not given; relative to: input RNA pool; direction: higher = stronger binding
# Target: RING finger protein unkempt homolog, zinc fingers 1-6, GST-SBP tag (UNK, Homo sapiens, UniProt Q9C0B0, residues 30-357)
# Chain of UniProt Q9C0B0 (30-357, looked up): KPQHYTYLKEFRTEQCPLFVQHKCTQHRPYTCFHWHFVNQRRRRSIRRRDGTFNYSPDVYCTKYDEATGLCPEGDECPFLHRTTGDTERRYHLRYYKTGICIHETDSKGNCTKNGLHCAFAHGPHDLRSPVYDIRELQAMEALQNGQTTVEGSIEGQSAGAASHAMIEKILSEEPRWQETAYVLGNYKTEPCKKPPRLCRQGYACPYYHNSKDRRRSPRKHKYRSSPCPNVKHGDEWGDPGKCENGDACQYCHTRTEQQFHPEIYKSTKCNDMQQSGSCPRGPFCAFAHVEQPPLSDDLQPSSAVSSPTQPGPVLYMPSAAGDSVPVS
# Notes: RNA with constant flanks, human-mouse chimeric sites, ends assumed
# Shared flanks, not repeated: GGGAGUUCUACAGUCCGACGAUC … CAACAGAGGAUUGAGCAUCA
Strand,bound/input enrichment [ratio]
CUGAAAAACACAGAUAUCAAAGUUGUUGACUUUGGAAGUGCAACGUAUGAUGAUGAACAUCAUAGUACUUUGGUGUCUACCCGGCACUACAGAGCUCCCGAGGUCAUUUUGGCUUUAGGU,0.514
AAAGAGUGGAUAGAGUGUGCACACGGGAUCGGUGGGACCCGGGCGAAAAAGGAGUGCAAGAUAGAAUUCGAUGACUUCGAAGAGUGCUUGCUUCGGUAGAAAACGAUGAGGCGAAUGCAU,0.526
CGGAGCCCUCCUCUCCCACAGGCCCAAGAUGUGACCCACCAGUGCCUUUUGUCUUCCUGUCAGCUCUGUCAAUCACGCCUGUCCUCUCACGCCCACACCAAGUGCCCAAAGUGGGGAGGG,0.435
UCUUUAAAAAAAAAAUUACCUUUUCUGCAUAUUAUAGCCCUCCCAUAGAUCCACGUUCAAGCUCAAAGGCCAAAACUUUUGCACGGAGCUCAAACAUCUGAUGAAGAAAGAUUUCUGAGA,4.71
UGUGCAUAUGAUGCUUGAGAUGGUUUUUGCAAAAGCAGAAAUCGCUGCAAGGUAAUCACAAUAGAUACAAGCGGUAUUUUAAACCUUUGAAAUAAAUGGAUGUAACUGUACGUUGGUACA,0.259
UUGCUACUGACUCCCUGGGUCAAGUUCCUGUGGGAAUCAUACAGGCAGUGUUUGGACCUUCUUCGAAACAAUUCUAGAGUAGAGCGCCUGUACCAUGAUAUCGCCCAGCAAGCUUUCAAA,0.208
GGCCUGGACCUUCCUGGGCUAGUGCAAAAUAGCGGCAGUGGAGGCUCGAGAGGAAAGUUUGUUAGUGGAGGCAGUGGUAGAGGCCGUCAUGUACGGUCCUUUACUCGAUAGAUGUGUUCU,0.47
UCGGAUGCUGUGCUGGGUCACUUUUCAUAUCCAGAUCCUUCCCAGUGGACAGAUGAAGAACUGGGAAUCCCUCCUGAUGAUGAAGACUGACACUGUAAACUCUCUGGACGAGUAGGAGCA,0.497
UGACAAGCACGAGCAUCAGCCAUGCCUUUCCUUGACAUACAGAAAAAGCUGGGCAUCAGCCUGGACCGGCACUUUAUGUUCCUAAGCGGUGAACAGCCCUAUAAGAACGCCGCUCGGUGC,0.125
GCCACCAGAUCCCAGAAACAUGACCCUUGCUGCCUACAAAGAGAAGAUGAAGGAACUCCCGCUGGUGUCUCUGUUCUGCUCCUGCUUCCUGGCCGAUCCCCUGAAUAAGUCGUCCUACAA,0.415
UUGCUACUGACUCCCUGGGUUAAAUUCCUGUGGGAAUCAUACAGGCAGUGUUUGGACCUUCUUCGAAACAAUUCUAGAGUAGAGCGCCUUUACCAUGAUAUUGCCCAACAAGCUUUCAAA,0.136

# Sample 4 — method: protein-binding microarray; molecule type: double-stranded DNA, one strand shown; medium: in vitro; tested at: 250 nM; notes: 60-bp whole probe; with: salmon DNA 0.4 mg/ml; relative to: random background probes; direction: higher = stronger binding; shared flanks, not repeated: GCCTAGCAC … GTCTTGATTCGCTTGACGCTGCTG
# Target: Interferon regulatory factor 5, full length, phosphomimetic (IRF5, Homo sapiens, UniProt Q13568-2, residues 1-514, K96S/S451D/S453D/S456D/S462D)
Strand,log fluorescence
TTAGAACTGGGGGTTCGATTAGTGCTA,0.453 z-score
CTAGGACTGGACTTTCGGTTAGTGCTA,9.16 z-score
GACGGTATCGCCTTTCGGGACGTGCTA,2.52 z-score
TCACATTTTCGTTTTGTACTGTGCTAG,5.08 z-score
TTAGGTCTCCTTATGCTTTAGTGCTAG,-0.321 z-score
GACTGACTGCTTTTCCTGACGTGCTAG,0.0264 z-score
TTAGGACTGGGACTGAGTTAGTGCTAG,-0.731 z-score
GACGGACTGCTTCTCCTGCCGTGCTAG,-0.392 z-score
TCACCTCTGCATTCCCTACTGTGCTAG,0.236 z-score
TACTACATATCACCTCAATCGTGCTAG,0.754 z-score
GATGGTTCCCTTTTCCTGACGTGCTAG,0.387 z-score
GTCGTCACTGCCATAATGCGGTGCTAG,-0.33 z-score
TTCTGAACCATTTTGGTTTTGTGCTAG,0.505 z-score
TCAGTTTCCATTTTCTGACTGTGCTAG,2.6 z-score
TTAGATTTCACTTCCGATTAGTGCTAG,3.94 z-score
TTAGGTCTCGGTCTCGGATAGTGCTAG,0.701 z-score
TTGGATCTCAGTCTCGATTAGTGCTAG,0.534 z-score
GACGGACTGGATCTCGGGACGTGCTAG,-0.382 z-score
GACGGACTGGACAGTGGGGACGTGCTA,-0.538 z-score
TTAAGTATCGGGACTGGGTTAGTGCTA,3.09 z-score
ACCCGAGTCCCTATCTCCTCGTGCTAG,-0.382 z-score
CATCGTAAGCAAAAATGATTGTGCTAG,0.639 z-score
GAGGAGATGAGAAACGATGAGTGCTAG,0.0648 z-score
TCATGCATGTTTTTGACACTGTGCTAG,0.4 z-score
GAACCTTCCCCTCTAGGTTCGTGCTAG,0.255 z-score
